Measured values pooled from the literature.
Protocols differ between the studies behind these lines. Several values in a cell are separate wells, animals, samples, runs or records. ± gives the spread as reported.

[Cl][Cd][Cl]
micronucleated cells (HepaRG; maximum tested): 0.7%

O=c1ccc2ccccc2o1
point of departure (HepG2; item: cellular ATP; 6 h): 640 µM

CCCCCCCCCCCCOS(=O)(=O)[O-].[Na+]
cytotoxicity (THP-1; MTT; 50 µM): not toxic

COc1cccc(CNC(=O)C2CCN(Cc3cc4ccccc4n3Cc3ccccc3)CC2)c1OC
maximum response (Vero-E6; CellTiter-Glo ATP; 72 h, second round 5-point; baseline: DMSO 0%, hyamine -100%, more negative, more toxic): -11.5%

CC(C)C[C@@H](NC(=O)[C@H](N)CCCCN)C(=O)N[C@H](CC(C)C)C(=O)N[C@H](Cc1ccccc1)C(N)=O
viability (NGF-differentiated PC-12 neurons; 20 µM, 24 h; baseline: untreated): 98.7%

Cc1cc(C)cc(-c2ccc(CN3CCCC3C(=O)NCc3cccc(F)c3)cc2)c1 (stereo not shown)
maximum response (Vero-E6; CellTiter-Glo ATP; 72 h, first round 5-point; baseline: DMSO 0%, hyamine -100%, more negative, more toxic): -12.8%

CC1=CC(=O)c2ccccc2C1=O
maximum inhibition (human coronavirus OC43; virus-induced cell killing; MRC-5; screen): 19.6%

CC(C)C[C@@H](N)C(=O)N1CCC[C@@H]1C(=O)N[C@H](Cc1ccccc1)C(=O)N[C@H](Cc1ccccc1)C(=O)N[C@H](C)C(=O)N[C@H](CCC(=O)O)C(N)=O
viability (NGF-differentiated PC-12 neurons; 40 µM, 24 h; baseline: untreated): 97.3%

CC(C)C[C@H](NC(=O)[C@H](C)NC(=O)[C@@H](NC(=O)[C@H](CCCNC(=N)N)NC(=O)[C@H](CC(C)C)NC(=O)[C@H](Cc1c[nH]c2ccccc12)NC(=O)[C@@H]1CCCN1C(=O)[C@@H](N)CCCCN)C(C)C)C(=O)N[C@@H](CS)C(=O)N1CCC[C@H]1C(=O)NCC(=O)O
viability (A549; WST-1; 128 µM, 24 h): 87.6% and 95.5% and 95.9%

Cn1cc(C2=C(c3cn(C4CCN(Cc5ccccn5)CC4)c4ccccc34)C(=O)NC2=O)c2ccccc21
maximum inhibition (human coronavirus OC43; virus-induced cell killing; MRC-5; screen): 39.1%

N.N.O=C([O-])C1(C(=O)[O-])CCC1.[Pt+2]
IC50 (T47D; cell viability, MTT; 48 h): 117 ± 3.23 µM

Fc1ccc(-c2nn3c(Cn4nnc5ccccc54)nnc3s2)cc1
CC50 (HEp-2; cytotoxicity): > 100 µM

Cc1ccc(CCNC2CCCc3c2[nH]c2ccc(C)cc32)cc1 (stereo not shown)
non-viable cells (A549; 50 µM, 23 h): 16.8 ± 13.1%

Fc1cccc(COc2ccc(Nc3ccnc4cc(-c5cccc(N6CCOCC6)c5)ccc34)cc2Cl)c1
TC50 (NIH 3T3; PrestoBlue; 2% FBS medium; 96 h): 11 µM

c1ccc2c(c1)nnn2Cc1nnc2sc(-c3ccc4c(c3)OCCO4)nn12
CC50 (HEp-2; cytotoxicity): > 100 µM

CCCN1CCN(CCCNC(=O)c2cc3c(Cl)nc4ccccc4c3s2)CC1
maximum response (Vero-E6; CellTiter-Glo ATP; 72 h, second round 5-point; baseline: DMSO 0%, hyamine -100%, more negative, more toxic): -15.9%

COc1ccc(NC(=O)N2CCCCN3[C@H](CN(C)C)[C@H](c4ccc(C#Cc5ccccc5)cc4)[C@@H]3C2)cc1
selectivity index (differentiated THP-1; 72 h; baseline: THP-1 CC50 over EC50): 25

CN(C)c1ccc(C(Nc2nc3c(-c4ccc([N+](=O)[O-])cc4)nn(-c4ccccc4)c3s2)P(=O)(Oc2ccccc2)Oc2ccccc2)cc1 (stereo not shown)
viability (BNL mouse liver cells; SRB; 0.1 µM, 10% fetal bovine serum): 99.5%

CC(C)C[C@@H](N)C(=O)N[C@H](CC(C)C)C(=O)N[C@H](Cc1ccccc1)C(=O)N[C@H](Cc1ccccc1)C(=O)N[C@H](C)C(=O)N[C@H](CCC(=O)O)C(N)=O
viability (NGF-differentiated PC-12 neurons; 5 µM, 24 h; baseline: untreated): 100%

COc1ccc2c(Sc3ccccc3)c(C(=O)NCCCN3CCCCC3)[nH]c2c1
maximum response (Vero-E6; CellTiter-Glo ATP; 72 h, retest 8-point duplicates; baseline: DMSO 0%, hyamine -100%, more negative, more toxic): -19.1%

O=S(=O)(c1ccc(-c2ccc3nccc(Nc4cncs4)c3c2)cc1)N1CCOCC1
TC50 (NIH 3T3; cytotoxicity, PrestoBlue; 96 h, 2% FBS): > 20 µM

Cc1cc(O)c2c(=O)c3c(O)cc(O)c4c5c(O)cc(O)c6c(=O)c7c(O)cc(CO)c8c1c2c(c34)c(c65)c78
CYP1A1 induction (BEAS-2B; enzyme activity, inducer, fluorogenic substrate imaging; 10 µM, 24 h; baseline: control): 1 fold

CC(c1ccccc1)(c1ccc(O)cc1)c1ccc(O)cc1
necrotic cells (HepG2 spheroids; annexin V-FITC/PI flow cytometry; 0.01 µM, 96 h): 45.2 ± 12.5%

C/C=C(/C)C(=O)OC[C@H]1[C@@H](Cc2ccc(F)cc2)CO[C@@H]1c1ccc(F)cc1
LDH release (rat aortic VSMCs; 30 µM, 24.5 h): 5.9 ± 3.5%

Cc1ccc(Nc2ccnc(N3CCC(C(=O)NCCCc4ccccc4)CC3)n2)cc1
maximum response (Vero-E6; CellTiter-Glo ATP; 72 h, second round 5-point; baseline: DMSO 0%, hyamine -100%, more negative, more toxic): -29.1%

Oc1ccc(C2(c3ccc(O)cc3)c3ccccc3-c3ccccc32)cc1
late apoptotic cells (HepG2 spheroids, dissociated; annexin V-FITC/PI flow cytometry; 1 µM, 24 h): 10.9 ± 1.8%

CC(C)C[C@@H](NC(=O)[C@H](N)CCCCN)C(=O)N1CCC[C@@H]1C(=O)N[C@H](Cc1ccccc1)C(=O)N[C@H](Cc1ccccc1)C(=O)N[C@H](C)C(N)=O
viability (NGF-differentiated PC-12 neurons; 40 µM, 24 h; baseline: untreated): 95.8%

Cc1ccc(C)c(Nc2cc(C(=O)NCCCN(C)C3CCCCC3)c3ccccc3n2)c1
maximum response (Vero-E6; CellTiter-Glo ATP; 72 h, second round 5-point; baseline: DMSO 0%, hyamine -100%, more negative, more toxic): -27.8%

CC(C)C[C@@H](N)C(=O)N[C@H](Cc1ccccc1)C(=O)N[C@H](Cc1ccccc1)C(=O)N[C@H](C)C(N)=O
viability (NGF-differentiated PC-12 neurons; 160 µM, 24 h; baseline: untreated): 78.3%

COc1ccc(Nc2nn3c(-c4ccccc4)ccnc3c2C(=O)Nc2ccccc2)cc1
viability (WI-38; MTT; serum-free medium; 31.13 µg/mL, 48 h): 82.7%

COc1cccc(-c2ccccc2NC(=O)C2CCN(Cc3ccccc3F)CC2)c1
maximum response (Vero-E6; CellTiter-Glo ATP; 72 h, retest 8-point duplicates; baseline: DMSO 0%, hyamine -100%, more negative, more toxic): -0.611%

CC(C)C[C@@H](NC(=O)[C@H](N)CCCCN)C(=O)N1CCC[C@@H]1C(=O)N[C@H](Cc1ccccc1)C(=O)N[C@H](Cc1ccccc1)C(N)=O
viability (NGF-differentiated PC-12 neurons; 40 µM, 24 h; baseline: untreated): 100%

CN(CCC=C1c2ccccc2CCc2ccccc21)N=O
relative survival (TK6; 10 µM, 4 h, together with: hamster liver S9; baseline: vehicle): 31.3%

Cc1c2ccccc2c(C)c2c1ccc1ccccc12
lowest effective concentration (HepaRG; micronucleus formation; 24 (unit not given)): 12.5 µM

O=S(=O)(c1ccc(-c2ccc3nccc(Nc4cnccn4)c3c2)cc1)N1CCOCC1
TC50 (NIH 3T3; cytotoxicity, PrestoBlue; 96 h, 2% FBS): > 20 µM

CCc1ccc(Sc2cc(C(=O)NCCCN3CCC(C)CC3)c3ccccc3n2)cc1
maximum response (Vero-E6; CellTiter-Glo ATP; 72 h, first round 5-point; baseline: DMSO 0%, hyamine -100%, more negative, more toxic): -21.9%

CC(C)C[C@@H](N)C(=O)N1CCC[C@@H]1C(=O)N[C@H](Cc1ccccc1)C(=O)N[C@H](Cc1ccccc1)C(=O)N[C@H](C)C(N)=O
viability (NGF-differentiated PC-12 neurons; 10 µM, 24 h; baseline: untreated): 100%

CCn1nccc1Nc1ccnc2ccc(-c3ccc(S(=O)(=O)N4CCOCC4)cc3)cc12
TC50 (NIH 3T3; cytotoxicity, PrestoBlue; 96 h, 2% FBS): > 20 µM

CC(C)C[C@@H](NC(=O)[C@H](N)CCCCN)C(=O)N[C@H](CC(C)C)C(=O)N[C@H](Cc1ccccc1)C(=O)N[C@H](Cc1ccccc1)C(=O)N[C@H](C)C(N)=O
viability (NGF-differentiated PC-12 neurons; 20 µM, 24 h; baseline: untreated): 97.2%

Oc1ccc(C(c2ccc(O)cc2)(C(F)(F)F)C(F)(F)F)cc1
viable cells (HepG2 spheroids, dissociated; annexin V-FITC/PI flow cytometry; 1 µM, 96 h): 44.2 ± 2.8%

Excerpt of the above:
Cc1cc(C)cc(-c2ccc(CN3CCCC3C(=O)NCc3cccc(F)c3)cc2)c1 (stereo not shown)
maximum response (Vero-E6; CellTiter-Glo ATP; 72 h, first round 5-point; baseline: DMSO 0%, hyamine -100%, more negative, more toxic): -12.8%

COc1cccc(-c2ccccc2NC(=O)C2CCN(Cc3ccccc3F)CC2)c1
maximum response (Vero-E6; CellTiter-Glo ATP; 72 h, retest 8-point duplicates; baseline: DMSO 0%, hyamine -100%, more negative, more toxic): -0.611%

CC(C)C[C@@H](N)C(=O)N1CCC[C@@H]1C(=O)N[C@H](Cc1ccccc1)C(=O)N[C@H](Cc1ccccc1)C(=O)N[C@H](C)C(=O)N[C@H](CCC(=O)O)C(N)=O
viability (NGF-differentiated PC-12 neurons; 40 µM, 24 h; baseline: untreated): 97.3%
